Measurements of several laboratories.
Numbered parts are unrelated; each lists some results of a single study.

Block 1 — technique: RNA Bind-n-Seq; form: RNA; medium: in vitro; tested at: 200 nM; setting: whole 134-nt RNA, ends assumed; added: 150 mM KCl; reference: input library; reading: higher = stronger binding
Target: Ras GTPase-activating protein-binding protein 1, full length (G3BP1, Homo sapiens, UniProt Q13283)
Sequence of UniProt Q13283 (whole entry, looked up): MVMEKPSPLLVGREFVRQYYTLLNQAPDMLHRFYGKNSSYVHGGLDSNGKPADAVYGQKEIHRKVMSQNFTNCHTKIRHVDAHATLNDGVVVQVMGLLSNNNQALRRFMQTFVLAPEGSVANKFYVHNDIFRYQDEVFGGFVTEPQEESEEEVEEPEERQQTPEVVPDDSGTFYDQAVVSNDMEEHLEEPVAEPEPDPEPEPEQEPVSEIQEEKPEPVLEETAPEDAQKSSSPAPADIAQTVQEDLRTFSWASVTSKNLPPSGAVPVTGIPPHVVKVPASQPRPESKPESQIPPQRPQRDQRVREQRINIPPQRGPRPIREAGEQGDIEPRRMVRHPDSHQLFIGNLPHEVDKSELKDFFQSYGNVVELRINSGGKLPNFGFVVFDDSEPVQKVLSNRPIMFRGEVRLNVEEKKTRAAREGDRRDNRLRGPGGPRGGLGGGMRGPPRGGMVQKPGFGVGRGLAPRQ
Strand | log2 enrichment
GGGAGUUCUACAGUCCGACGAUCCAAGUCCUGUGCUACACAUCGUAUGUACCGAAUCGGGUUUGGUUUGGGGUUUGGGAAAGUAUUAUGUUACGCCGUUCGGAUCUGCACUUCUGGAAUUCUCGGGUGUCAAGG | 0.139
GGGAGUUCUACAGUCCGACGAUCUCCUGUGCUACACAUCGUAUGUACCGAAUCGGGGCCCCCGGGCCCCCGGGCCCCCGGGGAAAGUAUUAUGUUACGCCGUUCGGAUCUGCAUGGAAUUCUCGGGUGUCAAGG | -1.18
GGGAGUUCUACAGUCCGACGAUCGCCACUGUUCACCAGUCCUACCCACACCAUGCCACACAGCUCCAUGCCCACCAGCCGCAGCCGGCUACCACGCCUACUGGAAGCCAGCCGUGGAAUUCUCGGGUGUCAAGG | -0.217
GGGAGUUCUACAGUCCGACGAUCGUCCUGUGCUACACAUCGUAUGUACCGAAUCGGCCCCCGGGGCCCCCGGGGCCCCCGGAAAGUAUUAUGUUACGCCGUUCGGAUCUGCACUGGAAUUCUCGGGUGUCAAGG | -1.93

Block 2 — technique: protein-binding microarray; form: double-stranded DNA, one strand shown; medium: in vitro; tested at: 2540 nM top; setting: 60-bp whole probe; added: salmon DNA 0.4 mg/ml; reference: random background probes; reading: higher = stronger binding
Target: Interferon regulatory factor 3, full length, phosphomimetic (IRF3, Homo sapiens, UniProt Q14653, residues 1-427, S386D/S396D/S398D/S402D/T404D/S405D)
Sequence of UniProt Q14653 (whole entry, unmodified, looked up): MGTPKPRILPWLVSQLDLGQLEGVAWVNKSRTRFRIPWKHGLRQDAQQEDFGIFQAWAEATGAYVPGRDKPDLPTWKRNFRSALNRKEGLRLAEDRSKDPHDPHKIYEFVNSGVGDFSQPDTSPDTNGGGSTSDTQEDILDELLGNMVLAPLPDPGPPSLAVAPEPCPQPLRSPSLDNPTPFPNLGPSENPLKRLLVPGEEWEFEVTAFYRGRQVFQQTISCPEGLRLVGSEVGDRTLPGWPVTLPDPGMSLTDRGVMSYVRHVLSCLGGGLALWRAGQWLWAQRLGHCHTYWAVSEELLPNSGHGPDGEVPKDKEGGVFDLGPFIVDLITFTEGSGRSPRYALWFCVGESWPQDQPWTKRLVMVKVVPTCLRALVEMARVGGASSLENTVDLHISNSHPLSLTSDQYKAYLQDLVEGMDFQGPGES
Strand | fitted relative affinity [z-score]
GCCTAGCACGACGAACTTGGGACTGGAGACGTGCTAGTCTTGATTCGCTTGACGCTGCTG | -0.427
GCCTAGCACCTGTTTTTGCTTTCTTTATGGTGCTAGGTCTTGATTCGCTTGACGCTGCTG | 2.71
GCCTAGCACTTGGGTATCGACTTTCGGTTAGTGCTAGTCTTGATTCGCTTGACGCTGCTG | 1.38
GCCTAGCACTTAGAACTAGGGACTGGATTAGTGCTAGTCTTGATTCGCTTGACGCTGCTG | -0.65

Mixed results
MNT bHLH-zipper, MAX partner unstated: Max-binding protein MNT, bHLH-zipper, MAX partner unstated (MNT, Homo sapiens, UniProt Q99583, residues 220-300)
Sequence of UniProt Q99583 (220-300, looked up): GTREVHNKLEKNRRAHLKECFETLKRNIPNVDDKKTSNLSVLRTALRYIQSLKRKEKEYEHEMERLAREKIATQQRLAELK
Substance | target | test | system | setting | how to read | endpoint | value
ACGCGTCG | MNT bHLH-zipper, MAX partner unstated | protein-binding microarray | double-stranded DNA, one strand shown, in vitro | not given, k-mer, scored over probes, only values ≥0.25 | higher = stronger binding | E-score | 0.326
PhoQ, residues 284 288 289 292 302 303 STVVAA | PhoP, residues 12 14 15 18 19 AQALL (Escherichia coli, UniProt P23836) | Sort-seq, item: YFP reporter | E. coli | PhoQ-PhoP variant library, added: 10 µM Mg2+ | reference: high Mg2+ state, higher = stronger signaling | fold induction | 15
AGTGGGGA | MNT bHLH-zipper, MAX partner unstated | protein-binding microarray | double-stranded DNA, one strand shown, in vitro | not given, k-mer, scored over probes, only values ≥0.25 | higher = stronger binding | E-score | 0.252
ACGCCCCG | MNT bHLH-zipper, MAX partner unstated | protein-binding microarray | double-stranded DNA, one strand shown, in vitro | not given, k-mer, scored over probes, only values ≥0.25 | higher = stronger binding | E-score | 0.274

Excerpt of the above (block 1):
Strand | log2 enrichment
GGGAGUUCUACAGUCCGACGAUCGUCCUGUGCUACACAUCGUAUGUACCGAAUCGGCCCCCGGGGCCCCCGGGGCCCCCGGAAAGUAUUAUGUUACGCCGUUCGGAUCUGCACUGGAAUUCUCGGGUGUCAAGG | -1.93
